Assay results of several laboratories.
Lines come from different studies, so protocols differ. ± marks the error that the study gave.

SMILES = Cc1ccc(CNc2c(NC3CCN(Cc4ccccc4)CC3)c(=O)c2=O)cc1; cell line = SH-SY5Y; test = MTT; setting = 12.5 µM, 24 h; quantity = viability; result = 95.7 ± 1.64%
SMILES = CC[C@H](C)[C@H](NC(=O)[C@H](CCC(=O)O)NC(=O)CNC(=O)[C@@H](NC(=O)[C@H](CC(C)C)NC(=O)[C@H](CC(C)C)NC(=O)[C@H](CC(C)C)NC(=O)[C@H](CC(C)C)NC(=O)[C@H](CS)NC(=O)[C@H](CO)NC(=O)[C@H](Cc1ccccc1)NC(=O)CNC(=O)[C@H](CCCNC(=N)N)NC(=O)[C@@H]1CCCN1C(=O)[C@H](C)NC(=O)[C@H](CCSC)NC(=O)CNC(=O)CNC(=O)[C@H](Cc1ccccc1)NC(=O)[C@H](CCCCN)NC(=O)[C@H](Cc1c(C)cc(O)cc1C)NC(=O)[C@H](N)CCCNC(=N)N)[C@@H](C)O)C(=O)N[C@@H](CC(=O)O)C(=O)N[C@@H](CC(C)C)C(=O)N1CCC[C@H]1C(=O)N[C@H](C(=O)N[C@@H](CCCCN)C(=O)N[C@@H](CCCNC(=N)N)C(=O)N[C@@H](CCCNC(=N)N)C(=O)N[C@@H](C)C(N)=O)C(C)C; cell line = mouse erythrocytes; setting = 10 µM, 1 h, 37 °C; quantity = hemolysis; result = 3.3%
SMILES = O=c1c(NCc2ccc(O)cc2)c(NC2CCN(Cc3ccccc3)CC2)c1=O; cell line = SH-SY5Y; test = MTT; setting = 12.5 µM, 24 h; quantity = viability; result = 97.8 ± 2.14%
SMILES = NC(=O)c1ccc(C(=O)NOCc2ccc(Sc3cccc(Cl)c3)c(C(F)(F)F)c2)cc1; cell line = BXPC-3 cells (human); test = CCK-8; setting = 100 µM; quantity = cytotoxicity; result = not toxic
SMILES = CC=C(C)C(=O)OC1C(O)C2OC(COC(=O)CCCCCCCCCC(CCCCC)OC3OC(C)C(OC(C)=O)C(O)C3O2)C1OC(=O)C=Cc1ccccc1 (centres unmarked); cell line = Jurkat; test = cytotoxicity; quantity = IC50; result = 9.7 nM
SMILES = O=c1c(Nc2ccc(Br)cc2)c(NC2CCN(Cc3ccccc3)CC2)c1=O; cell line = SH-SY5Y; test = MTT; setting = 6.25 µM, 24 h; quantity = viability; result = 101 ± 1.44%
SMILES = CC(C)C[C@H](NC(=O)CCNc1ccc([N+](=O)[O-])c2nonc12)C(=O)N[C@@H](CC(C)C)C(=O)N[C@@H](CC(C)C)C(=O)N[C@@H](CC(C)C)C(=O)N[C@@H](Cc1ccc(OP(=O)(O)O)cc1)C(=O)O; cell line = SJSA-1; setting = 200 µM, 4 h; quantity = nuclear concentration; result = 950 ± 10 µM
SMILES = O=C(CCC(=O)OCCNC(=O)[C@H](Cc1ccccc1)NC(=O)[C@H](Cc1ccccc1)NC(=O)Cc1ccc2ccccc2c1)NCCS(=O)(=O)O; cell line = SK-OV-3; test = LC-MS; test system = culture medium; setting = 50 µM, 4 h; quantity = concentration in medium; result = 39 µM
SMILES = Cn1c(=S)[nH]c2cc3ccccc3cc2c1=O; cell line = BGM; test = morphology and trypan blue; setting = 72 h; quantity = maximum non-toxic concentration; result = 60 µg/mL
SMILES = Cc1c(C)c(C)[c-](C)c1C.Fc1c[c-]c(-c2ccccn2)cc1.[Cl-].[Ir+3]; cell line = A2780; test = ICP-MS, item: iridium in nuclear fraction; setting = IC50; quantity = iridium share in fraction; result = 10.4%
SMILES = CC(C)[C@@H]1NC(=O)CNC(=O)[C@H](CC(N)=O)NC(=O)[C@H](CCCNC(=N)N)NC(=O)[C@H](Cc2ccc(O)cc2)NC(=O)[C@H](C(C)C)NC(=O)[C@@H](NC(=O)[C@@H](NC(=O)[C@H](CC(N)=O)NC(=O)[C@H](Cc2c[nH]c3ccccc23)NC(=O)[C@H](C)NC(=O)[C@H](Cc2ccccc2)NC(=O)CNC(=O)[C@H](CCCCN)NC(=O)[C@H](Cc2ccccc2)NC(=O)[C@H](Cc2ccccc2)NC(=O)[C@H](CCCCN)NC(=O)OCC2c3ccccc3-c3ccccc32)C(C)C)CSSC[C@@H](C(=O)N[C@@H](Cc2c[nH]cn2)C(=O)N[C@@H](CCCNC(=N)N)C(=O)N[C@@H](CCCNC(=N)N)C(=O)N[C@@H](C)C(=O)N[C@@H](CC(N)=O)C(N)=O)NC(=O)[C@H](C(C)C)NC(=O)[C@H](CCCNC(=N)N)NC1=O; cell line = mouse erythrocytes; setting = 128 µM, 1 h; quantity = hemolysis; result = 6.08%
SMILES = COc1ccc(Nc2c(NC3CCN(Cc4ccccc4)CC3)c(=O)c2=O)cc1OC; cell line = SH-SY5Y; test = MTT; setting = 12.5 µM, 24 h; quantity = viability; result = 79.3 ± 2.57%
SMILES = CC1(C)CC([n+]2cc([NH-])on2)CC(C)(C)N1O; cell line = human trabecular meshwork cells; setting = 24 h, serum-free; quantity = highest non-toxic concentration; result = ≤ 125 µM
SMILES = CC(C)C[C@H](NC(=O)[C@H](CCCCN)NC(=O)[C@H](CC(C)C)NC(=O)[C@H](CC(C)C)NC(=O)[C@H](CCCCN)NC(=O)[C@H](CCCCN)NC(=O)[C@H](CC(C)C)NC(=O)[C@H](CC(C)C)NC(=O)[C@H](CCCCN)NC(=O)[C@H](CC(C)C)NC(=O)[C@H](CC(C)C)NC(=O)[C@H](CCCCN)NC(=O)[C@H](CCCCN)NC(=O)[C@@H](N)CC(C)C)C(N)=O; cell line = mouse erythrocytes; setting = 200 µM, 1 h, 37 °C; how to read = reference: Triton X-100; quantity = hemolysis; result = 71.1%
SMILES = CSCC[C@H](NC(=O)[C@H](CC(N)=O)NC(=O)[C@@H](N)Cc1ccccc1)C(=O)N[C@@H](CCC(N)=O)C(=O)N[C@@H](C)C(=O)N[C@@H](CCC(N)=O)C(=O)N[C@@H](CCCNC(=N)N)C(=O)N[C@@H](CCCNC(=N)N)C(=O)N[C@@H](Cc1ccccc1)C(=O)N[C@@H](Cc1ccc(O)cc1)C(=O)N[C@@H](CCC(=O)O)C(=O)N[C@@H](C)C(=O)N[C@@H](CC(C)C)C(=O)N[C@@H](Cc1c[nH]cn1)C(=O)N[C@@H](CC(=O)O)C(=O)NCC(=O)NCC(=O)NCC(=O)NCC(=O)N[C@@H](CO)C(=O)N[C@@H](C)C(=O)N[C@@H](CCC(=O)O)C(=O)N[C@@H](C)C(=O)N[C@@H](CCC(=O)O)C(=O)N[C@@H](C)C(=O)N[C@@H](CCCCN)C(=O)N[C@@H](C)C(=O)N[C@@H](CCCCN)C(=O)N[C@@H](C)C(=O)N[C@@H](CCC(=O)O)C(=O)N[C@@H](C)C(=O)N[C@@H](CCC(=O)O)C(=O)N[C@@H](C)C(=O)N[C@@H](CCCCN)C(=O)N[C@@H](C)C(=O)N[C@@H](CCCCN)C(=O)O; cell line = mouse splenocytes; setting = 1 or 10 µg in 1 mL; quantity = IL-6 production; result = not detected
SMILES = CC[C@H](C)[C@H](NC(=O)[C@H](CCCCN)NC(=O)[C@H](C)NC(=O)[C@H](CCCNC(=N)N)NC(=O)[C@H](CCCCN)NC(=O)[C@H](CC(N)=O)NC(=O)[C@H](CCC(N)=O)NC(=O)[C@H](Cc1ccccc1)NC(=O)[C@H](Cc1c[nH]c2ccccc12)NC(=O)[C@@H](NC(=O)[C@H](CCCCN)NC(=O)[C@@H](NC(=O)[C@H](CCC(N)=O)NC(=O)[C@H](CO)NC(=O)[C@H](CC(C)C)NC(=O)[C@H](CCC(N)=O)NC(=O)[C@H](C)NC(=O)[C@H](CCCNC(=N)N)NC(=O)[C@@H](NC(=O)[C@H](Cc1ccccc1)NC(=O)[C@@H](NC(=O)[C@@H](NC(=O)[C@H](CCCNC(=N)N)NC(=O)[C@H](CCC(=O)O)NC(=O)[C@H](CCCNC(=N)N)NC(=O)[C@H](CCCNC(=N)N)NC(=O)[C@H](CCC(N)=O)NC(=O)[C@H](CCCCN)NC(=O)[C@H](CCCNC(=N)N)NC(=O)CNC(=O)CNC(=O)CNC(=O)CNC(=O)CNC(=O)CCCC[C@@H]1SC[C@@H]2NC(=O)N[C@@H]21)[C@@H](C)O)[C@@H](C)O)[C@@H](C)O)[C@@H](C)CC)[C@@H](C)CC)C(=O)N[C@@H](CCCCN)C(=O)N[C@@H](CCCCN)C(N)=O; cell line = SK-OV-3; test = MALDI-TOF MS; setting = 7 µM, 1 h, 37 °C; how to read = reference: SK-OV-3 over CHO-K1; quantity = internalization ratio; result = ~3 fold
SMILES = CC(C)C[C@H](NC(=O)[C@H](CCCCN)NC(=O)[C@H](CC(C)C)NC(=O)[C@H](CC(C)C)NC(=O)[C@H](CCCCN)NC(=O)[C@H](CCCCN)NC(=O)[C@H](CC(C)C)NC(=O)[C@H](CC(C)C)NC(=O)[C@H](CCCCN)NC(=O)[C@H](CC(C)C)NC(=O)[C@H](CC(C)C)NC(=O)[C@H](CCCCN)NC(=O)[C@H](CCCCN)NC(=O)[C@H](CC(C)C)NC(=O)[C@@H](N)CSSC[C@H](N)C(=O)N[C@@H](CC(C)C)C(=O)N[C@@H](CCC(=O)O)C(=O)N[C@@H](Cc1c[nH]cn1)C(=O)N[C@@H](CC(C)C)C(=O)N[C@@H](CC(C)C)C(=O)N[C@@H](CCC(=O)O)C(=O)N[C@@H](Cc1c[nH]cn1)C(=O)N[C@@H](CC(C)C)C(=O)N[C@@H](CCC(=O)O)C(=O)N[C@@H](Cc1c[nH]cn1)C(=O)N[C@@H](CC(C)C)C(=O)N[C@@H](CC(C)C)C(=O)N[C@@H](CCC(=O)O)C(=O)N[C@@H](Cc1c[nH]cn1)C(N)=O)C(N)=O; cell line = mouse erythrocytes; setting = 200 µM, 1 h, 37 °C; how to read = reference: Triton X-100; quantity = hemolysis; result = ~13.8%
SMILES = Cn1c(NN)nc2cc3ccccc3cc2c1=O; cell line = BGM; test = morphology and trypan blue; setting = 72 h; quantity = maximum non-toxic concentration; result = 55 µg/mL
SMILES = COC(=O)C1=CO[C@@H](O)[C@@H]2C(Cn3cc(C4(O)CCCCC4)nn3)=CC[C@H]12; cell line = SK-N-SH; test = MTT; setting = 0.15 µM, 24 h, with: H2O2 250 µM; quantity = viability; result = 79.9 ± 0.5%
SMILES = CC1C(=NNC(=O)c2ccncc2)C(C)C(c2ccc(Cl)cc2)OC1c1ccc(Cl)cc1 (centres unmarked); cell line = human PBMC; test = cytotoxicity, MTT; quantity = IC50; result = 564 µg/mL
SMILES = O=c1c(Nc2ccc(O)cc2)c(NC2CCN(Cc3ccccc3)CC2)c1=O; cell line = SH-SY5Y; test = MTT; setting = 12.5 µM, 24 h; quantity = viability; result = 102 ± 1.32%
SMILES = CC1C(=NNC(=O)c2ccncc2)C(C)C(c2ccc(Br)cc2)OC1c1ccc(Br)cc1 (centres unmarked); cell line = human PBMC; test = cytotoxicity, MTT; quantity = IC50; result = 514 µg/mL
SMILES = Cn1c(SCc2cccc(C#N)c2)nc2cc3ccccc3cc2c1=O; cell line = BGM; test = morphology and trypan blue; setting = 72 h; quantity = maximum non-toxic concentration; result = 65 µg/mL
SMILES = CC[C@H](C)[C@H](NC(=O)CNC(=O)[C@H](CCCNC(=N)N)NC(=O)[C@H](CCCCN)NC(=O)CNC(=O)[C@H](CC(N)=O)NC(=O)CNC(=O)CNC(=O)CNC(=O)[C@H](CC(C)C)NC(=O)[C@H](C)NC(=O)CNC(=O)[C@H](Cc1c[nH]c2ccccc12)NC(=O)[C@H](Cc1ccc(O)cc1)NC(=O)CNC(=O)[C@H](CCCNC(=N)N)NC(=O)[C@H](CCSC)NC(=O)CNC(=O)[C@H](CCCCN)NC(=O)[C@H](CC(N)=O)NC(=O)[C@H](Cc1ccccc1)NC(=O)[C@H](CCCCN)NC(=O)[C@@H](N)CC(N)=O)C(=O)N[C@@H](CCSC)C(=O)NCC(=O)N[C@@H](Cc1ccc(O)cc1)C(=O)N[C@@H](CC(=O)O)C(=O)O; cell line = 3T3 fibroblasts; test = MTT; setting = 1 nM to 10 µM, 24 h; quantity = cytotoxicity; result = not toxic
SMILES = O=c1c(NCc2ccccc2)c(NC2CCN(Cc3ccccc3)CC2)c1=O; cell line = SH-SY5Y; test = MTT; setting = 12.5 µM, 24 h; quantity = viability; result = 114 ± 1.64%
SMILES = N#Cc1ccc(CSc2nc3cc4ccccc4cc3c(=O)n2Cc2ccccc2)cc1; cell line = BGM; test = morphology and trypan blue; setting = 72 h; quantity = maximum non-toxic concentration; result = 65 µg/mL
SMILES = COc1cc(COc2ccc3c(c2)CN(C(=O)[C@H](CCC(=O)O)NC(=O)[C@H](CC(=O)O)NC(=O)[C@H](CC(=O)O)NC(=O)[C@H](CCC(=O)O)NC(=O)[C@@H](CCCNC(=N)N)NC(=O)[C@@H](CCCNC(=N)N)NC(=O)[C@@H](CCCNC(=N)N)NC(=O)[C@H](C)N(C)C(=O)[C@H](Cc2ccccc2)NC(=O)[C@@H](NC(=O)[C@H](Cc2ccccc2)NC(=O)[C@H](C)NC(=O)[C@H](CCCNC(=N)N)N(C)C(=O)[C@@H]2CCCN2C(=O)[C@H](CCCNC(=N)N)NC(=O)CNC(=O)c2ccc4c(c2)C2(OC4=O)c4ccc(O)cc4Oc4cc(O)ccc42)[C@@H](C)OCc2cc(OC)c(OC)cc2[N+](=O)[O-])[C@H](C(=O)N[C@@H](CCC(=O)O)C(=O)N[C@@H](CCC(=O)O)C(=O)N[C@H](C(N)=O)C(C)C)C3)c([N+](=O)[O-])cc1OC; cell line = A-431; setting = 30 min, 37 °C; quantity = reporter degradation; result = 0%
SMILES = CC(=O)N(O)CCCP(=O)(O)O; cell line = L5178Y TK+/- clone 3.7.2C; test = mouse lymphoma TK; setting = 2200 µg/mL, 4 h, with S9; how to read = reference: negative control; quantity = mutant frequency; result = 112%
SMILES = Cc1c(Br)cnc2c1NC(=O)c1cccnc1N2C1CC1; cell line = primary human hepatocytes; test = midazolam 1'-hydroxylation; setting = 25 and 100 µM, 72 h; how to read = reference: vehicle; quantity = CYP3A4 activity; result = no effect
